Published values of several laboratories.
Compare with care: the assays were run in different laboratories. “And” joins repeats or separate records; there may be more than shown. ± gives the spread as reported.
Target: Acetylcholinesterase (ache, Electrophorus electricus, UniProt O42275)
Chain of UniProt O42275 (whole entry, looked up): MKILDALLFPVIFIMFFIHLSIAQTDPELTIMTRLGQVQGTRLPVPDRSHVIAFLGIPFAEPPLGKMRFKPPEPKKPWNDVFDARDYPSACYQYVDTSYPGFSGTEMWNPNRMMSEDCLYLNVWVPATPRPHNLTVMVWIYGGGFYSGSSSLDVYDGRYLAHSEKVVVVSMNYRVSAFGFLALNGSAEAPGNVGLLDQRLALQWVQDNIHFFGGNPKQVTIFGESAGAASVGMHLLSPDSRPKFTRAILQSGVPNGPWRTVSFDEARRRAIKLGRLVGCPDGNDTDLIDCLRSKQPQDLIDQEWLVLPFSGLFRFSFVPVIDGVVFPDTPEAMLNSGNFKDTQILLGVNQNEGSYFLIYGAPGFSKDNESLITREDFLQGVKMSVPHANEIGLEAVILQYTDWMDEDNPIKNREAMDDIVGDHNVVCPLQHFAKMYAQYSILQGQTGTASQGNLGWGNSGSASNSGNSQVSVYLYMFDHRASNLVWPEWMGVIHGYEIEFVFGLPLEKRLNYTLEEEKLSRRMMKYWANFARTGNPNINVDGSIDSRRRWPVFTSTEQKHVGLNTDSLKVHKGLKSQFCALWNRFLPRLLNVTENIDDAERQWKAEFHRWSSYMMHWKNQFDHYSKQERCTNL
Mode: inhibitor

SMILES = CCC1c2cc(OC)c(O)cc2C(c2ccc(O)c(OC)c2)C1C (centres unmarked); observed = enzyme activity; method = Ellman; pH = pH 7.5; IC50 = 287 µM
SMILES = COc1cc2c(cc1OC)-c1c(C)c3cc(OC)c(OC)cc3c[n+]1CC2; observed = enzyme activity; IC50 = 18.3 µM
SMILES = O=C(CN1C(=O)c2ccccc2C1=O)Nc1ccc[n+](Cc2ccc(F)cc2)c1; observed = enzyme activity; method = Ellman; IC50 = 2.1 µM
SMILES = CC(C)=CCCC(C)=CCCC(C)=CCc1c(O)cc(O)c(CC=C(C)C)c1-c1cc2ccc(O)cc2o1; observed = enzyme activity; IC50 = 13.9 µM
SMILES = COc1cc(/C=C/C(=O)CC(=O)/C=C/c2ccc(OC(=O)CCc3c[nH]c4ccccc34)c(OC)c2)ccc1OC(=O)CCc1c[nH]c2ccccc12; observed = enzyme activity; notes = with preincubation; IC50 = 5.66 µM
SMILES = CC(=O)[C@H]1CC[C@H]2[C@@H]3CC=C4C[C@@H](O)CC[C@]4(C)[C@H]3CC[C@]12C; observed = enzyme activity; method = Ellman; IC50 = 73.2 µM
SMILES = CCCCc1cc(-c2ccccc2)c2cc(/N=N/c3ccc([N+](=O)[O-])cc3)ccc2n1; observed = enzyme activity; method = Ellman; pH = pH 7.4; IC50 = 17 µM
SMILES = CC(=O)C1=C(C)NC(SCCCSc2nnc(Cc3ccccc3Nc3c(Cl)cccc3Cl)n2-c2ccc(Cl)c(Cl)c2)=NC1c1ccc(C)cc1 (centres unmarked); observed = enzyme activity; method = Ellman; IC50 = 0.1 µM
SMILES = CCN(CCCCOc1c(OC)cc(C(=O)N2CCC(Cc3ccccc3)CC2)cc1OC)Cc1ccccc1; observed = enzyme activity; method = Ellman; IC50 = 1.9 µM
SMILES = COCc1cc(C)nc(SCC[N+](C)(C)CC(=O)Nc2cccc(C(F)(F)F)c2)c1C#N; IC50 = 32.3 µM
SMILES = COc1cc2c(cc1OC)C(=O)C1(C2)C(c2ccccc2C)C(Cc2c[nH]c3ccccc23)NC12C(=O)Nc1ccc(OC(F)(F)F)cc12 (centres unmarked); observed = enzyme activity; pH = pH 8; IC50 = 6.43 µM and < 10 µM
SMILES = COc1cc2c(cc1OC)C(=O)C(=CCC1CCN(Cc3ccccc3)CC1)C2; observed = enzyme activity; method = Ellman; IC50 = 0.036 µM
SMILES = COc1ccccc1/C=N/NC(=O)COc1ccc(Sc2ccc(OCC(=O)N/N=C/c3ccccc3OC)cc2)cc1; observed = enzyme activity; IC50 = 49.1 µM
SMILES = Ic1ccccc1/N=N/c1ccc2nc(-c3ccccc3)cc(-c3ccccc3)c2c1; observed = enzyme activity; method = Ellman; pH = pH 7.4; IC50 = 13.1 µM
SMILES = COCCN1COc2c(cc3c4c(c(=O)oc3c2C)CCC4)C1; observed = enzyme activity; method = Ellman; IC50 = 0.58 µM
SMILES = COc1cc2c(cc1OC)[C@@H]1Cc3ccc(OC)c(OC)c3C[N+]1(C)CC2 (some centres unmarked); observed = enzyme activity; IC50 = 21.2 µM
SMILES = CC(C)=C[C@H]1C[C@](C)(O)[C@@H]2[C@H]3CC[C@@H]4[C@@]5(C)CC[C@H](O[C@@H]6OC[C@H](O)[C@H](O[C@@H]7O[C@H](CO)[C@@H](O)[C@H](O)[C@H]7O)[C@H]6O[C@@H]6O[C@@H](CO)[C@H](O)[C@H]6O)C(C)(C)[C@@H]5CC[C@@]4(C)[C@@]34CO[C@@]2(C4)O1; observed = enzyme activity; method = Ellman; IC50 = 12.8 µM
SMILES = COc1cc2c(cc1OC)C(=O)C1(C2)C(c2cccc([N+](=O)[O-])c2)C(Cc2c[nH]c3ccccc23)NC12C(=O)Nc1ccc(OC(F)(F)F)cc12 (centres unmarked); observed = enzyme activity; pH = pH 8; IC50 = 2.54 ± 0.1 µM
SMILES = Nc1ccc(Nc2c(NC3CCN(Cc4ccccc4)CC3)c(=O)c2=O)cc1; observed = enzyme activity; method = Ellman; IC50 = 4.4 µM
SMILES = Cc1c2[nH]c3cc(Br)ccc3c2cc[n+]1C; observed = enzyme activity; IC50 = 0.47 µM
SMILES = COc1cc(/C=C/C(=O)NC(C)C(N)=O)ccc1OCc1ccccc1 (centres unmarked); observed = enzyme activity; method = Ellman; IC50 = 15.2 µM
SMILES = O=C(COc1ccc(Sc2ccc(OCC(=O)N/N=C/c3cccc4ccccc34)cc2)cc1)N/N=C/c1cccc2ccccc12; observed = enzyme activity; IC50 = 131 µM
SMILES = COc1cccc(C2C(Cc3c[nH]c4ccccc34)NC3(C(=O)Nc4ccc(OC(F)(F)F)cc43)C23Cc2cc(OC)c(OC)cc2C3=O)c1 (centres unmarked); observed = enzyme activity; pH = pH 8; IC50 = 1.97 ± 0.19 µM
SMILES = CCOc1cc(/C=N/NC(=O)COc2ccc(Sc3ccc(OCC(=O)N/N=C/c4ccc(O)c(OCC)c4)cc3)cc2)ccc1O; observed = enzyme activity; IC50 = 36.3 µM
SMILES = C=CCc1ccc(OCC(=C)C)c(OC)c1; observed = enzyme activity; method = Ellman; pH = pH 7.5; IC50 = 146 µM
SMILES = CN1CCc2cc3c(c4c2C1C(O)c1ccccc1-4)OCO3 (single isomer, unassigned; (-)); observed = enzyme activity; IC50 = 17.6 µM
SMILES = COc1cccc(C2C(Cc3ccccc3)NC3(C(=O)Nc4ccc(OC(F)(F)F)cc43)C23Cc2cc(OC)c(OC)cc2C3=O)c1 (centres unmarked); observed = enzyme activity; pH = pH 8; IC50 = 2.06 ± 0.21 µM
SMILES = O=C(COc1ccc(Sc2ccc(OCC(=O)N/N=C/c3ccc(Cl)cc3Cl)cc2)cc1)N/N=C/c1ccc(Cl)cc1Cl; observed = enzyme activity; IC50 = 47.3 µM
SMILES = Ic1ccccc1/N=N/c1ccc2nc(-c3ccccc3)c(I)c(-c3ccccc3)c2c1; observed = enzyme activity; method = Ellman; pH = pH 7.4; IC50 = 16 µM
SMILES = COc1ccc(/C=N/NC(=O)COc2ccc(Sc3ccc(OCC(=O)N/N=C/c4ccc(OC)c(OC)c4)cc3)cc2)cc1OC; observed = enzyme activity; IC50 = 25.7 µM
SMILES = COc1ccc2c(c1OC)C(O)C1c3c(cc4c(c3-2)OCO4)CCN1C (centres unmarked); observed = enzyme activity; IC50 = 4.3 µM
SMILES = O=C(CN1C(=O)c2ccccc2C1=O)Nc1ccc[n+](Cc2cccc(Cl)c2)c1; observed = enzyme activity; method = Ellman; IC50 = 6.7 µM

Repeated from above:
SMILES = Nc1ccc(Nc2c(NC3CCN(Cc4ccccc4)CC3)c(=O)c2=O)cc1; observed = enzyme activity; method = Ellman; IC50 = 4.4 µM
SMILES = Cc1c2[nH]c3cc(Br)ccc3c2cc[n+]1C; observed = enzyme activity; IC50 = 0.47 µM
SMILES = COc1cc(/C=C/C(=O)NC(C)C(N)=O)ccc1OCc1ccccc1 (centres unmarked); observed = enzyme activity; method = Ellman; IC50 = 15.2 µM
SMILES = O=C(COc1ccc(Sc2ccc(OCC(=O)N/N=C/c3cccc4ccccc34)cc2)cc1)N/N=C/c1cccc2ccccc12; observed = enzyme activity; IC50 = 131 µM
